Measurements gathered from unrelated publications.
Each numbered part is a random draw from the data of one study; scales do not carry over between parts. Positions count from the first letter of the parent shown.

Series 1
Target: Hepatocyte nuclear factor 3-alpha (Foxa1, Mus musculus, UniProt P35582, residues 1-468, full length assumed)
Technique: EMSA with sequencing
Molecule type: double-stranded DNA, one strand shown
Sample: in vitro
Concentration: 10 and 20 nM
Notes: whole designed probe, mean of two concentrations, ends assumed
Reference: negative control set to 0
Reading: higher = stronger binding
All sequences stand within: GTGAGCGGTGCCCATTGATGGGGAAC … TTTCACTGGGATCGTGGGGAC
Residues (chain): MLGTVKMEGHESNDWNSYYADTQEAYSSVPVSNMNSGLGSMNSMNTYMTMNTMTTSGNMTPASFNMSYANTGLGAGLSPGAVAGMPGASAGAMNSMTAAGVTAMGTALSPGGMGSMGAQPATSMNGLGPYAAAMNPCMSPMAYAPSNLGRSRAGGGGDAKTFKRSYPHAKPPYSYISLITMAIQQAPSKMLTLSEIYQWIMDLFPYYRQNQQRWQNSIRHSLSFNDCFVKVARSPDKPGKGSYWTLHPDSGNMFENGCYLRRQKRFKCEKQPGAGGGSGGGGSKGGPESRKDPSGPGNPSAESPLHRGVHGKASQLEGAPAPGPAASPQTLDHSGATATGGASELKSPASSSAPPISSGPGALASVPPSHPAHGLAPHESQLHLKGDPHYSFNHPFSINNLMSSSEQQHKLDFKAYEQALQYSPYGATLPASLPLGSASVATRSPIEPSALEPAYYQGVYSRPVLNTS
For `TTTAGACAATTAGGATCCTCCCTTCCCAAGCTCTTTCTCCATTGGAAACACAAAGCAAATAAAGATCTCTGTAGATCAGAATGAGTCAGAAAAGCAAACAAGTGGCATGAATGTGGAAACCTGTGGTTGAAAGCACTCCCATGCCATTCAGGGACCAGAGTCAGGTTAAATGCCAGAAACTAAGGGCTGGAAA`, “normalised bound fraction” read 0.472 ratio.
For `AATCCAGCTACCTATCTTCAGTTCCTTGGCCTTCAGCTGGCAGTGAAACAGACACATCAGCTTTAAGACTGGCAGCCAAATAGTTAACGATCTGTAATCTTACAATTACGCAAGTAGAGAGTTCCTGTTCAAACAGACTGGATGAAAGCCCTTCCATAAAGAACCCTTTAGGTGATGATGCTAAAATTATTTT`, “normalised bound fraction” read 0.134 ratio.
`ATCTTCCCCCTCTTCCTTGCCCCACCAGCTCACCTTCCCGGGTTATTTGCAGATAGGAAAATAAATAAAGCCGGCATTCGTTAACGCAGTTCTGGCGCAAACTGCTGTTTGCTCTGGATGAATCATGGTCCTTTGGCGAGGCGTGGCTCCGGGAGAGCAAAGCACCGTGTCAGGGCCATGATCCGGGGTGGCC` — result for “normalised bound fraction”: 0.35 ratio.
Under “normalised bound fraction”, `CAGCCTGCAGTGCGCTCAGTTAAACAATTCCAAATCAAGGAATTTTGTCTGATACAAGGAATTTGGGGTGTGTTTTCCTAACATGCACCCTGGGTAAATAGACTGGGGGGGGGGGCCATTTCCTGACCCAGCTGAAGCCAATATGCATTGCGGCCACAAGGTGGCGCGTCTGGGCCTGGCAAACCCCTGTGCT` is recorded as 0.188 ratio.
`TCGTGATTTGATATCTTGGTAATTTAGACTAGAGCCAGAGCAGTTTTTAAAGAGAATCTTTTCTGATCATTTTAAGCAGCATGATAAATTCTAAGTAATCTTAAATTTTGAATAATTACAGAGTGGGCATGAGCTCTTCCTTTCTTTGTTCCTCTACATGCAAGAAACTGGATGCCAAGCCCAACCTCTGGAT` — result for “normalised bound fraction”: -0.0806 ratio.
`CTCATTCCTTGCTTCCGCCAATAATCTGACTAGTAAAGAAGTCACTGCATGCCACAAATTGTCAGTGCTGGAGTGACTCAGAAGGAAGTTATTTATTTACTTATTTAATATATGAGTGTCACAGATGCAAATTCCATCTTGAGAATACCAACTCCTGATGCCAACTGATTGTCAGTCATGGCTACAACAGGAG`: “normalised bound fraction” 0.481 ratio.
`GTGTTATGTGTTCTTTGAATACCTTATTGACAAGAACTATAACTTTTCCAGGCTCAGATGCTTTTTTCTTCTTGTCTAAGTGATCCTTGGCAATGTAATCTGCCACTCTGGTTTTTCCACTCCCTGTAGGGAGGCAGATGATGATATTCTTCCCTTCCAAGGCTGGCTGGGCAACTTCCATTTGGTAAGGCCT`: “normalised bound fraction” -0.0276 ratio.
`TGGCAAAGTTTTTGCCAGAATTCAGAATTCAATGTAACATATGCTTTGCAGTTTTTCTGTTACGCTGTGATCAATGTATTTATGTGTATATGTGTAAACACATGTAATGTGTGTGTGCGCATATGTGTTGGAGTAATAATATTGTGCCATTCCTGGTATATGGAAAATGGCCTCCAATTTCCCCCCAAATTCT`: “normalised bound fraction” 0.211 ratio.

Series 2
Target: Hepatocyte nuclear factor 3-beta, forkhead domain (FOXA2, Homo sapiens, UniProt Q9Y261, residues 142-269)
Technique: protein-binding microarray
Molecule type: double-stranded DNA, one strand shown
Sample: in vitro
Concentration: not given
Notes: k-mer, scored over probes, only values ≥0.25
Reading: higher = stronger binding
Construct (chain): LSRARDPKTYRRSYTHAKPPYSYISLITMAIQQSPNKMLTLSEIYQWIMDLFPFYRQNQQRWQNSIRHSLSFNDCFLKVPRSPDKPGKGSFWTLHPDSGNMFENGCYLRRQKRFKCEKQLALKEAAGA
With `AAACAATG` the E-score was 0.348.
`ATACAACA` gave an E-score of 0.367.
`ACATGTAA` gave an E-score of 0.342.
The E-score of `ATAGCAAT` is reported as 0.358.
For `AAATTCCA`, the E-score was 0.278.
For `TATTCAAA`, the E-score was 0.328.
`TGTATCAA` gave an E-score of 0.29.
`ATTGTTAG` gave an E-score of 0.276.

Series 3
Target: NFE2, bZIP domain (human)
Technique: DHFR protein complementation
Sample: yeast
Notes: single substitutions, most at no-binding floor
Reference: wild-type JUN-FOS pair
Reading: higher = stronger binding
Starting sequence: JUN, bZIP domain (human); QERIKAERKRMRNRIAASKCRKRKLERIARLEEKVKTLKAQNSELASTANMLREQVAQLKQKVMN; partner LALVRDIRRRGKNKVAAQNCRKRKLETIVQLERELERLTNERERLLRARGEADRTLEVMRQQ
`I28H` gave a binding fitness of -1.49 natural log.
For `E33M`, the binding fitness was -1.5 natural log.
`K36F` has a binding fitness of -1.41 natural log.
For `N42S`, the binding fitness was -1.55 natural log.
`K34W` has a binding fitness of -1.52 natural log.
With `E44S` the binding fitness was -1.51 natural log.
The binding fitness of `T48E` is reported as -1.39 natural log.
For `E33D`, the binding fitness was -1.54 natural log.

Mixed results
The viability of `COc1cc(NC(C)CCCN)c2ncccc2c1` (stereo not shown) is reported as 8.29% (A-375; 100 µM, 18 h).
